Assay results collected from several papers.
A part holds a random share of what one study measured. Substitutions count along the parent as printed.
Chain of UniProt P36897 (whole entry, looked up): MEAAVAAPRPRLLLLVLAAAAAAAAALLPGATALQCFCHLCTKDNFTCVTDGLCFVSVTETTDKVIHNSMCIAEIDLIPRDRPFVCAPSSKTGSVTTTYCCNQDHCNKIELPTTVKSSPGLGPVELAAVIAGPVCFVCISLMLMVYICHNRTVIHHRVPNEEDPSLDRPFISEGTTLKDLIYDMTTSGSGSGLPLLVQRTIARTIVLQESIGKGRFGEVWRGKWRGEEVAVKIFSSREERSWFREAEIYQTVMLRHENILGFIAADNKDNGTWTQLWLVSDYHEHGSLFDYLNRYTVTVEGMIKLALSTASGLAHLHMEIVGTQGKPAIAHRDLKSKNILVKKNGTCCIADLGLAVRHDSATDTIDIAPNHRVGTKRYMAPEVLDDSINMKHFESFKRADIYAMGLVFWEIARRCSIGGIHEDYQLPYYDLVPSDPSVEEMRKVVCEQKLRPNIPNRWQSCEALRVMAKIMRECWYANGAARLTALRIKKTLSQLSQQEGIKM

Block 1
Target: Prothrombin, mature alpha-thrombin (F2, Homo sapiens, UniProt P00734)
Technique: aptamer microarray, sandwich
Molecule type: DNA with 2'F-ANA
Matrix: in vitro
Tested at: 200 nM
Notes: whole 15-mer aptamer, many near background
Added: Cy3 exosite-II aptamer, 400 nM
Reading: higher = stronger binding
Oligonucleotide: GGTTGGTGTGGTTGG
Modification	mean fluorescence intensity
2'F-ANA at 1 2 4 5 6 7 15	55.4 a.u.
2'F-ANA at 1 2 3 4 5 6 7 8 9 11 13 15	66.2 a.u.
2'F-ANA at 7 9 10 11 13 14 15	117 a.u.
2'F-ANA at 1 9 10 11 13 15	54.2 a.u.
2'F-ANA at 1 2 6 8 9 10 14	53.7 a.u.
2'F-ANA at 1 6 7 8 9 10 11 12 13	63.9 a.u.
2'F-ANA at 1 2 3 5 6 7 8 10 14	49.1 a.u.
2'F-ANA at 1 5 7 9 11 13	50 a.u.

Block 2
Target: CCNF, cyclin fold, Cln2 fusion (human)
Technique: yeast growth competition, sequencing
Matrix: yeast
Notes: strong parent motif
Reference: not given
Reading: higher = stronger binding
Parent: ORC1 docking peptide (human); PRARKRLELGNLG
Change	normalised enrichment score
R2C	2.73
R4Q	1.87
A3Q	1.77
R4G	1.37
K5E	0.384
R6W	1.69
P1F	2.56
R4E	0.626

Block 3
Target: CREB3, bZIP domain (human)
Technique: DHFR protein complementation
Matrix: yeast
Notes: single substitutions, most at no-binding floor
Reference: wild-type JUN-FOS pair
Reading: higher = stronger binding
Parent: JUN, bZIP domain (human); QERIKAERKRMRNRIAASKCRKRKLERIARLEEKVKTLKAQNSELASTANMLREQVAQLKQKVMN; partner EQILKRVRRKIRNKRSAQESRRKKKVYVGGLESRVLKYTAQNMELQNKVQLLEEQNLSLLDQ
Change	binding fitness [natural log]
L38T	-1.53
A57I	-1.43
M51P	-1.54
L52Q	-1.41
V35N	-1.62
E32D	-1.59
R53W	-1.44
V56P	-1.5

Other studies, line by line
Structure (SMILES)	target	effect on	action	tested at	reference	endpoint	result
FC(F)(F)c1ccc(/C=C/c2nc(COc3ccc(CCCCn4ccnn4)cc3)co2)cc1	TGF-beta receptor type-1 (TGFBR1, Homo sapiens, UniProt P36897)	enzyme activity	inhibitor	0.5 µM	control	remaining activity	98.8%
